Published values collected from several papers.
Each numbered part is a random draw from the data of one study; scales do not carry over between parts. Substitutions count along the parent as printed.

Study 1
Target: Prothrombin, mature alpha-thrombin (F2, Homo sapiens, UniProt P00734)
Technique: aptamer microarray, sandwich
Form: DNA with 2'F-ANA
Matrix: in vitro
Concentration: 200 nM
Setting: whole 15-mer aptamer, many near background
Added: Cy3 exosite-II aptamer, 400 nM
Reading: higher = stronger binding
Quantity: mean fluorescence intensity
Oligonucleotide: GGTTGGTGTGGTTGG
2'F-ANA at 1 5 6 9: 59 a.u.
2'F-ANA at 1 3 5 10 11 12 14: 57.4 a.u.
2'F-ANA at 1 4 7 9 11 13 14 15: 96.3 a.u.
2'F-ANA at 1 2 3 6 7 10 14: 69.7 a.u.
2'F-ANA at 3 4 6 7 8 9 11 12 14 15: 274 a.u.
2'F-ANA at 2 4 7 9 13: 196 a.u.
2'F-ANA at 1 3 5 8 13 15: 60.2 a.u.
2'F-ANA at 2 3 4 5 8 10 11 12: 57.4 a.u.

Study 2
Target: CCNA2, cyclin fold, Cln2 fusion (human)
Technique: yeast growth competition, sequencing
Matrix: yeast
Setting: strong parent motif
Reference: not given
Reading: higher = stronger binding
Quantity: normalised enrichment score
Starting sequence: viral docking peptide; YKVKRRLVFGADD
YKKKRRLVFGADD [V3K]: 3
YKVKRRLVFWADD [G10W]: 5.97
YKVKRRLVFQADD [G10Q]: 6.2
YKVKRRLVFTADD [G10T]: 6.03
YKVKRRLVFGMDD [A11M]: 6.34
YKVKRRLVFGAND [D12N]: 6.47
YKVKRRLVGGADD [F9G]: 0.643
YKCKRRLVFGADD [V3C]: 5.74
YKIKRRLVFGADD [V3I]: 6.14
YKVKVRLVFGADD [R5V]: 4.54
YKVWRRLVFGADD [K4W]: 3.56
YKNKRRLVFGADD [V3N]: 1.89
YVVKRRLVFGADD [K2V]: 5.88
YIVKRRLVFGADD [K2I]: 5.75
YAVKRRLVFGADD [K2A]: 5.98
YKVKRELVFGADD [R6E]: 5.26
YKVKRRLRFGADD [V8R]: 6.19
YGVKRRLVFGADD [K2G]: 6.09

Study 3
Target: vanadate, free oxyanion
Technique: microfluidic competitive inhibition
Matrix: in vitro, cell-free expressed
Concentration: not given
Setting: derived from inhibition constants, unchanged parent 676 nM
Reading: lower = stronger binding
Quantity: oxyanion analog dissociation constant
Starting sequence: PafA, mature enzyme, eGFP fusion (Elizabethkingia meningoseptica, UniProt Q9KJX5); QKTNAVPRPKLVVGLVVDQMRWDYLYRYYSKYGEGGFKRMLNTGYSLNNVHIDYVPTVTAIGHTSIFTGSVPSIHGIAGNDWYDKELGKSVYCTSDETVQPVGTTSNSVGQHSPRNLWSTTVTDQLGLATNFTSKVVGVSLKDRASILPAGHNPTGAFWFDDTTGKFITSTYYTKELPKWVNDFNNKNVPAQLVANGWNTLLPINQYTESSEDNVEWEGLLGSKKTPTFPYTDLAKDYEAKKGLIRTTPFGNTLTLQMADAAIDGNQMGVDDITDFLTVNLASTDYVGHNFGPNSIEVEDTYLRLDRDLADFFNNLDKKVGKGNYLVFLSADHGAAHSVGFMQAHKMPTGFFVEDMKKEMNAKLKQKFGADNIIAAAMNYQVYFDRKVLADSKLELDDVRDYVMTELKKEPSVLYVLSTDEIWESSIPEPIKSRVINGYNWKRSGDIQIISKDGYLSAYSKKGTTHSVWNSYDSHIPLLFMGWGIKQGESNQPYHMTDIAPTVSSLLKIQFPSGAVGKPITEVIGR
D271V: 1.27 µM
S95V: 2.54 µM
E86V: 521 nM
Y402G: 730 nM
S425V: 585 nM
L126G: 1.31 µM

Study 4
Target: UDP-N-acetylglucosamine--peptide N-acetylglucosaminyltransferase 110 kDa subunit (OGT, Homo sapiens, UniProt O15294)
Observed: phage display binding
Technique: phage display panning NGS
Form: peptide
Setting: panning round 3
Reference: OGT-panned over input library
Quantity: fold enrichment
Residues (O15294 1-1046): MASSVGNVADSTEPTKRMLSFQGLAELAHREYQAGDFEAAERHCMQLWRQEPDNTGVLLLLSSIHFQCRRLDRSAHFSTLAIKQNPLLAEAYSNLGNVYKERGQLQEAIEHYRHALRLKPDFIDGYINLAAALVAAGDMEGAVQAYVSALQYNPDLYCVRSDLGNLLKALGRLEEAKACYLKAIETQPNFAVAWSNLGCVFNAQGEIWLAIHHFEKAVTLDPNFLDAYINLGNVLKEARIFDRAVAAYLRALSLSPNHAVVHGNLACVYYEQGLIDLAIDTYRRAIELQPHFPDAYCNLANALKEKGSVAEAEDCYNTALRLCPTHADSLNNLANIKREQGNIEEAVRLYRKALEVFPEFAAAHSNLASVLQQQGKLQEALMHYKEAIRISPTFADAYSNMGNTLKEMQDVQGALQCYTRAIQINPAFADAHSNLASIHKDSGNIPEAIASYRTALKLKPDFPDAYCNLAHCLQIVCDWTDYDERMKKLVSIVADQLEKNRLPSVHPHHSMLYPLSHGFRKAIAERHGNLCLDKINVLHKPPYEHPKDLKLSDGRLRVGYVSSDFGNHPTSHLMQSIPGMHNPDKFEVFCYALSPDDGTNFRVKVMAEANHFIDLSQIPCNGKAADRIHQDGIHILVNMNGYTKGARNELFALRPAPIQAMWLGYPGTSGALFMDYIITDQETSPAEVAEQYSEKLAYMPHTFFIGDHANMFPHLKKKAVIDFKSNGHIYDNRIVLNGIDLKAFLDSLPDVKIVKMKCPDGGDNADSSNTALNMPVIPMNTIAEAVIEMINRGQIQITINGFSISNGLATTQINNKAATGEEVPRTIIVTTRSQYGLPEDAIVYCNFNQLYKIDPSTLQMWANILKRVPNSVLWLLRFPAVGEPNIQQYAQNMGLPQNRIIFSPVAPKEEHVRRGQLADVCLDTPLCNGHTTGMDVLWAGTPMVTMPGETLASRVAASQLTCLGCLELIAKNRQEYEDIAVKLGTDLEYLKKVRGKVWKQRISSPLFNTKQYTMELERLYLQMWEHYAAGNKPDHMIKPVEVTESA
SWMPFYQIEFSQGSS: 3.45
VGMNQNAYMPMYQIH: 2.45
AFSPFFPVYSIEIRR: 2.79
DSMLFTPLYQITVPH: 5.21
VERWFPPKYQMPIQG: 2.68

Repeated from above (study 2):
YKNKRRLVFGADD [V3N]: 1.89
YKVKVRLVFGADD [R5V]: 4.54
YKCKRRLVFGADD [V3C]: 5.74
